# Assay results from different studies.
# A part holds a random share of what one study measured.
# UniProt Q9H4B4, sequence (whole entry, looked up): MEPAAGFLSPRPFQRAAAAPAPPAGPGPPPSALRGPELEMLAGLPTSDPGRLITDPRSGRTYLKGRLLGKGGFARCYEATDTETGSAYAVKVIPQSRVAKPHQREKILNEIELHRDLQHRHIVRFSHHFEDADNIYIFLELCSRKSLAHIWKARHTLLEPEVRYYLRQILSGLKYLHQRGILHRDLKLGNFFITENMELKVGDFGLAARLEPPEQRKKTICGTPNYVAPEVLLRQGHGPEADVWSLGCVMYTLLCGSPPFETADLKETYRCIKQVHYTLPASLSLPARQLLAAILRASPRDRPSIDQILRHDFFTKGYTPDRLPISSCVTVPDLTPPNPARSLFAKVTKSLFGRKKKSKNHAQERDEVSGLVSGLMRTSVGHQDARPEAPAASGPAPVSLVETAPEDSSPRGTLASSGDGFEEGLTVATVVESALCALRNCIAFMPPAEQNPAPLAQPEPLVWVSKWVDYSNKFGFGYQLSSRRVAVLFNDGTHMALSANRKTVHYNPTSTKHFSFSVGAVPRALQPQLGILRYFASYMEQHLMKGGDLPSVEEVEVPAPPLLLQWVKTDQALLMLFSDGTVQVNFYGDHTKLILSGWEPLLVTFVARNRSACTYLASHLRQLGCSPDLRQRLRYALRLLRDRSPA
# UniProt P20794, sequence (whole entry, looked up): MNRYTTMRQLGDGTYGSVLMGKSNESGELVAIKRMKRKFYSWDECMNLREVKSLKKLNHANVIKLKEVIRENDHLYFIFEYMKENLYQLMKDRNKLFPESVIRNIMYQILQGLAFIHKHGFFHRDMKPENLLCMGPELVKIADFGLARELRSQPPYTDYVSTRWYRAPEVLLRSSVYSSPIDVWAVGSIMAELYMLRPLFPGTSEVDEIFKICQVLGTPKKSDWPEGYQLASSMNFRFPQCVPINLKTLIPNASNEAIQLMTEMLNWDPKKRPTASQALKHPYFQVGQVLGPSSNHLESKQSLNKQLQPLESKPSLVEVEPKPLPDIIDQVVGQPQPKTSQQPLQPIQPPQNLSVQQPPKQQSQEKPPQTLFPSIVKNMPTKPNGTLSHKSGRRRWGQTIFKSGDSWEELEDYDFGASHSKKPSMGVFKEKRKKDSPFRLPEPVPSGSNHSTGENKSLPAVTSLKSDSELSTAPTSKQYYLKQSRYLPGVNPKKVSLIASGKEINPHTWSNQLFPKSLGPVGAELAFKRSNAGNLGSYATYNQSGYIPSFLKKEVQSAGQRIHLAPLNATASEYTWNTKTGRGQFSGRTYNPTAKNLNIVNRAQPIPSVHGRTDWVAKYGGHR
# UniProt P78368, sequence (whole entry, looked up): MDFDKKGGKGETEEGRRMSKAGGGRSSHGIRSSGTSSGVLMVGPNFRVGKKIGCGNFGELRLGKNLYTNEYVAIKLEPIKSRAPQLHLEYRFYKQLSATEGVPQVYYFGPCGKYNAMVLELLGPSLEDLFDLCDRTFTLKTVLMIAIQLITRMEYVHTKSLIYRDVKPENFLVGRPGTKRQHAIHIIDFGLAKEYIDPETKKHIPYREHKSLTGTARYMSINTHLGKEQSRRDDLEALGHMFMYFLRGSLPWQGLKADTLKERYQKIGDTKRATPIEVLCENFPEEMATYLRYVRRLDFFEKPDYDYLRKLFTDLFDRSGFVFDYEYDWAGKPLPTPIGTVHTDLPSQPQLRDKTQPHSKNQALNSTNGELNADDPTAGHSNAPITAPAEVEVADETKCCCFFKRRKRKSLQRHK
# UniProt Q6P2M8, sequence (whole entry, looked up): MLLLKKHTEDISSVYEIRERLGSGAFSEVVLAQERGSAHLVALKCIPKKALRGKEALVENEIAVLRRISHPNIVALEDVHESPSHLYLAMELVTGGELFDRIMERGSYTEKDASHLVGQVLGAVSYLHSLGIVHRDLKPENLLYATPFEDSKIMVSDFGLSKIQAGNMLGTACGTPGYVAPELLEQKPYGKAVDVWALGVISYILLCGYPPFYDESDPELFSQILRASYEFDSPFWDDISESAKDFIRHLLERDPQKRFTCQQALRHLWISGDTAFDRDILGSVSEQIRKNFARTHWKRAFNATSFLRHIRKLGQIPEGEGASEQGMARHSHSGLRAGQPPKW

# Set 1
# Target: Myosin light chain kinase, smooth muscle (MYLK, Homo sapiens, UniProt Q15746)
# UniProt Q15746, sequence (whole entry, looked up): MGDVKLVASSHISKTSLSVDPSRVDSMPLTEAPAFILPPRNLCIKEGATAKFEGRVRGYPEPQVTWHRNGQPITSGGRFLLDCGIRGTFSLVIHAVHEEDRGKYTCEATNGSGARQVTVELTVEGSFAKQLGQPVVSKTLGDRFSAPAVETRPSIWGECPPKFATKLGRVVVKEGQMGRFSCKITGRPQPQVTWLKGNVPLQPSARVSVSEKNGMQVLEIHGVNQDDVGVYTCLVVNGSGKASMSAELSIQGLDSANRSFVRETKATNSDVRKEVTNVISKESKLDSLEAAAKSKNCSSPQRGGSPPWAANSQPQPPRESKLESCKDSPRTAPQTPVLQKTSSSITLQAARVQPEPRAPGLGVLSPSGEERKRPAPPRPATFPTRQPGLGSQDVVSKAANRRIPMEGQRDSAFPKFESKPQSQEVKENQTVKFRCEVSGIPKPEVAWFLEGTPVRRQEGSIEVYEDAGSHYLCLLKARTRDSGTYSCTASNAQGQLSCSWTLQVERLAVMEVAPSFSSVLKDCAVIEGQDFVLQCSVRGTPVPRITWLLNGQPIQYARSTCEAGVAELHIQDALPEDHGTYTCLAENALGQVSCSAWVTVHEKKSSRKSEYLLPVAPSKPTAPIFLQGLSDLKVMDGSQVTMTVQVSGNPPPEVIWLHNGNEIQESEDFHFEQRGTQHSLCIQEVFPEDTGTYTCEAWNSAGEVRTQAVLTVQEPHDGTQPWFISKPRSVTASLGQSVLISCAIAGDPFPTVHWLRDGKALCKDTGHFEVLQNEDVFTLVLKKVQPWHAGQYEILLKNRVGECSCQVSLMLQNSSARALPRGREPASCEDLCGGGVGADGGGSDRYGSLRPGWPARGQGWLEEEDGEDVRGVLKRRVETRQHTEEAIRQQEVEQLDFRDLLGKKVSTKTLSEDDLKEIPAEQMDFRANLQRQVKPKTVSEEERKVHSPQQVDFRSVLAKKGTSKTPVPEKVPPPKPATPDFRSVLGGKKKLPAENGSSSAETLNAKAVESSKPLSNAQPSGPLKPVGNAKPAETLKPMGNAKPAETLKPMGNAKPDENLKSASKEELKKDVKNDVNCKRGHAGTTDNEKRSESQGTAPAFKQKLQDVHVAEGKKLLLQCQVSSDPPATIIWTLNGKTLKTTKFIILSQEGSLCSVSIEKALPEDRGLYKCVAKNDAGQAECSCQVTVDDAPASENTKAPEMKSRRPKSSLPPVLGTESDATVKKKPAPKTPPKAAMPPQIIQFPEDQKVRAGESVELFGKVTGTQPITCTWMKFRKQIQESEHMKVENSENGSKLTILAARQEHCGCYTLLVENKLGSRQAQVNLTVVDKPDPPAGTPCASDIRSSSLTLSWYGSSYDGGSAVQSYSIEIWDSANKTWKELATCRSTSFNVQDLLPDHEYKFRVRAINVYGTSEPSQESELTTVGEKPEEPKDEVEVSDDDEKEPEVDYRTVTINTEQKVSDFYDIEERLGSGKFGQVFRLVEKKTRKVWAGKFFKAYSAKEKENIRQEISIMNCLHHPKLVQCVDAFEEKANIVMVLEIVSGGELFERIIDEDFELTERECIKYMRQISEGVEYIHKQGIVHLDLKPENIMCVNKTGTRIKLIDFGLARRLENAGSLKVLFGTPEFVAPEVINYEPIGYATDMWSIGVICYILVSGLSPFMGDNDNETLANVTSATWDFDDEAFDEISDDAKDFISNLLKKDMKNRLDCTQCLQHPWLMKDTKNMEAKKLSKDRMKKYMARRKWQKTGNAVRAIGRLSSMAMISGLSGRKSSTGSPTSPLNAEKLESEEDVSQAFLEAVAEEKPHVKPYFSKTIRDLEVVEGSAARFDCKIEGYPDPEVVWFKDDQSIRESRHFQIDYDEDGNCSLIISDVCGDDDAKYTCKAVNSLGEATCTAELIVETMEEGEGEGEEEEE
# Read-out: enzyme activity
# Mode: inhibitor
# Tested at: 0.5 µM
# Baseline: control
SMILES,remaining activity [%]
Cc1ccc(Nc2nccc(N(C)c3ccc4c(C)n(C)nc4c3)n2)cc1S(N)(=O)=O,93
O=C1NC(=O)C(c2cn(CCCO)c3ncccc23)=C1c1cnccn1,74
Nc1ccc2ncnc(NCCc3ccc(Oc4ccccc4)cc3)c2c1,98.5
Nc1[nH]nc2nc3ccccc3nc12,93.6
O=S(=O)(c1cccc2cnccc12)N1CCCNCC1,97.4
O=c1c2ccccc2[nH]c(=S)n1CCN1CCC(=C(c2ccc(F)cc2)c2ccc(F)cc2)CC1,96.2
Cc1nc(-c2ccccc2)c(-c2ccncc2)o1,101
Cc1ccc(NC(=O)c2ccc(CN3CCN(C)CC3)cc2)cc1Nc1nc(-c2cccnc2)cs1,96.2
OCC(O)CCON=C1C(c2c(O)[nH]c3ccccc23)=Nc2ccccc21 (stereo not drawn),32.3
N#CC(C#N)=C(N)/C(C#N)=C/c1ccc(O)cc1,101
CC(C)[C@H](CO)Nc1nc(Nc2cc(N)cc(Cl)c2)c2ncn(C(C)C)c2n1,81.3
O=C(Nc1cccc(Nc2cc(Nc3cccc(C(F)(F)F)c3)ncn2)c1)C1CC1,99
Nc1ncnc2n[nH]c(Nc3ccc(F)cc3)c12,94.7
COc1ccc(C(=O)Nc2sc3c(c2C(N)=O)CCCC3)cc1OC,41.2
COc1cc2ncnc(Nc3ccc(F)c(Cl)c3)c2cc1OCCCN1CCOCC1,89.7
Cn1c2ccccc2c2c3c(c4c5ccccc5n(CCC#N)c4c21)CNC3=O,24.6

# Set 2
# SMILES: CNC(=O)Nc1ccc2c(c1)CC[C@@]21OC(=O)N(CC(=O)N(Cc2ccc(F)cc2)[C@@H](C)C(F)(F)F)C1=O
# Method: competition with immobilised ligand
# Tested at: 1 µM
target,read-out,remaining binding [%]
"Calcium/calmodulin-dependent protein kinase type 1B (PNCK, Homo sapiens, UniProt Q6P2M8)",cell-free assay,100
"Serine/threonine-protein kinase PLK3 (PLK3, Homo sapiens, UniProt Q9H4B4)",cell-free assay,86
"Serine/threonine-protein kinase MAK (MAK, Homo sapiens, UniProt P20794)",binding,84
"cAMP-dependent protein kinase catalytic subunit beta (PRKACB, Homo sapiens, UniProt P22694)",cell-free assay,100
"Casein kinase I isoform gamma-2 (CSNK1G2, Homo sapiens, UniProt P78368)",cell-free assay,87

# Set 3
# Species: human
# Medium: microsomes or S9
# Tested at: 2 µM
# Time: 0.5 h
Structure (SMILES),remaining compound
CNC(=O)CC1CCOC2(CCN(C(=O)C3CCC3)CC2)C1 (stereo not drawn),92.4%
COc1ccc(/C=C(/C)c2nc(C)c(-c3ccccc3)c(O)n2)cc1,55.5%
Cc1cc(Cl)nc(NCCCc2nc(C(C)C)no2)n1,27.3%
O=C1CC(C2CCCCC2)c2cnn(Cc3cccs3)c2N1 (stereo not drawn),6.81%
CC(C)=CCc1c2c(c3occ(-c4ccc(O)c(O)c4)c(=O)c3c1O)C=CC(C)(C)O2,45.3%
Fc1ccc(Oc2ccccc2CNc2nnco2)c(Cl)c1,96.2%
CC(=O)N(Cc1ccc(F)cc1)c1ccsc1C(=O)O,88.4%

# Set 4
# Cell line: A-375
# Tested at: 100 µM
# Time: 18 h
SMILES,viability [%]
C[N+]1(C)[C@@H]2CC[C@H]1C[C@@H](OC(=O)C(O)c1ccccc1)C2 (stereo partly drawn),89.7
CN(C)[C@@H]1C(O)=C(C(N)=O)C(=O)[C@@]2(O)C(O)=C3C(=O)c4c(O)ccc(Cl)c4[C@@H](O)[C@H]3C[C@@H]12,102
C[C@H](O)C(=O)Nc1c(I)c(C(=O)NC(CO)CO)c(I)c(C(=O)NC(CO)CO)c1I,89.5
COc1ccc2[nH]cc(CCNC(C)=O)c2c1,107
CCCc1nc(C)c2c(=O)[nH]c(-c3cc(S(=O)(=O)N4CCN(CC)CC4)ccc3OCC)nn12,50.8
